Measured values pooled from the literature.
Parts stem from different laboratories: compare values within a part only. Substitutions count along the parent as printed.
Sequence of UniProt Q9HBH9 (whole entry, looked up): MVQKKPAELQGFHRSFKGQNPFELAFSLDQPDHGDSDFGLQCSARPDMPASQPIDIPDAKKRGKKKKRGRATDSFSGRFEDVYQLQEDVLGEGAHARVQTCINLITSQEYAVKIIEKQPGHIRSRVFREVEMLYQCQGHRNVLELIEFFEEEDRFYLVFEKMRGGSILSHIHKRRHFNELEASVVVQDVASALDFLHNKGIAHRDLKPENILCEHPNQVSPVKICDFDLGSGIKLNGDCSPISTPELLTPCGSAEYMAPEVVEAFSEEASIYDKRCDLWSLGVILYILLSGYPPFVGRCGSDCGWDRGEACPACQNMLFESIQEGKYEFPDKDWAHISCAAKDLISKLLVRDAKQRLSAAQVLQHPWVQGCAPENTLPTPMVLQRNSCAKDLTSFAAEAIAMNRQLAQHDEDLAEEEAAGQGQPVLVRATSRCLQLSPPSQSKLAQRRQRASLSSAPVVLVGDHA
Sequence of UniProt P21728 (whole entry, looked up): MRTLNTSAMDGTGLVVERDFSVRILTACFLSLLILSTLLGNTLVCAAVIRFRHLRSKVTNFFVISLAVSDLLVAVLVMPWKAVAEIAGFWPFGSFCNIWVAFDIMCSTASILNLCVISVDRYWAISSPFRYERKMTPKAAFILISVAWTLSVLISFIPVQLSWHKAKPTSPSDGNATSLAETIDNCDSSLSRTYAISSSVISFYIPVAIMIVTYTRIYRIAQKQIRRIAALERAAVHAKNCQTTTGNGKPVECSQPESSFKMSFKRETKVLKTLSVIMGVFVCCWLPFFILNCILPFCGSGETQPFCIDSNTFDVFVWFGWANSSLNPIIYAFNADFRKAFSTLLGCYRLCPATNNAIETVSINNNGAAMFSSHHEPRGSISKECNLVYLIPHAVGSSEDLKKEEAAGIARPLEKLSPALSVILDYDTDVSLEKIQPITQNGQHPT
Sequence of UniProt P52333 (whole entry, looked up): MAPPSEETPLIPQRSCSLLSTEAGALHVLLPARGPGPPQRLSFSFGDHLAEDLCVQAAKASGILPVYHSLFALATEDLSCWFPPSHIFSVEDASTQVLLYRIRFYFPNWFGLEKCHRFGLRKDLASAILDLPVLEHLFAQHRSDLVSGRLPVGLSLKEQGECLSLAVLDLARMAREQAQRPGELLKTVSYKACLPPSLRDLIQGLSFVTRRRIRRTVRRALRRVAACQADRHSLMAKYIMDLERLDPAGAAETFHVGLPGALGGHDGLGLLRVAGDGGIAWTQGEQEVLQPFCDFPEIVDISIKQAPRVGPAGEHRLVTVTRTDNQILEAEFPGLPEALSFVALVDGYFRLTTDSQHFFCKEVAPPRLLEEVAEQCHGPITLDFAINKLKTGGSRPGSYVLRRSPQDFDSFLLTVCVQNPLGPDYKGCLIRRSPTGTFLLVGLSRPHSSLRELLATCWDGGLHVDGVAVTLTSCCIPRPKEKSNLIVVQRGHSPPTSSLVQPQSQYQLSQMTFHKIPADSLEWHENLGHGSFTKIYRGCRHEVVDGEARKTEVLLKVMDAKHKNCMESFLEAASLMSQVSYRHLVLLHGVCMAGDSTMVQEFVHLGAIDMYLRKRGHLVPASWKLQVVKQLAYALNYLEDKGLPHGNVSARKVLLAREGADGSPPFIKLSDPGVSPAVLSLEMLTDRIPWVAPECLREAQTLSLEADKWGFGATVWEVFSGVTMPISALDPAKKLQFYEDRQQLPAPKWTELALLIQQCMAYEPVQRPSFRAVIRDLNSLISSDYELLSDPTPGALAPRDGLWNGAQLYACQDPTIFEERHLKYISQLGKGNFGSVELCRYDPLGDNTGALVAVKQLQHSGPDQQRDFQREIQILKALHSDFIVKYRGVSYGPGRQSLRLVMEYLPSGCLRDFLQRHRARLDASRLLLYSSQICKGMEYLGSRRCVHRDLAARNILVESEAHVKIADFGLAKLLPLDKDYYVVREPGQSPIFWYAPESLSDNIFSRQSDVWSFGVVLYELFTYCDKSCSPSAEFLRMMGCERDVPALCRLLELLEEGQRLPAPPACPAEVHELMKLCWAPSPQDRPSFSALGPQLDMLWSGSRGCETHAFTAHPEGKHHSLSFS
Sequence of UniProt Q8NG66 (whole entry, looked up): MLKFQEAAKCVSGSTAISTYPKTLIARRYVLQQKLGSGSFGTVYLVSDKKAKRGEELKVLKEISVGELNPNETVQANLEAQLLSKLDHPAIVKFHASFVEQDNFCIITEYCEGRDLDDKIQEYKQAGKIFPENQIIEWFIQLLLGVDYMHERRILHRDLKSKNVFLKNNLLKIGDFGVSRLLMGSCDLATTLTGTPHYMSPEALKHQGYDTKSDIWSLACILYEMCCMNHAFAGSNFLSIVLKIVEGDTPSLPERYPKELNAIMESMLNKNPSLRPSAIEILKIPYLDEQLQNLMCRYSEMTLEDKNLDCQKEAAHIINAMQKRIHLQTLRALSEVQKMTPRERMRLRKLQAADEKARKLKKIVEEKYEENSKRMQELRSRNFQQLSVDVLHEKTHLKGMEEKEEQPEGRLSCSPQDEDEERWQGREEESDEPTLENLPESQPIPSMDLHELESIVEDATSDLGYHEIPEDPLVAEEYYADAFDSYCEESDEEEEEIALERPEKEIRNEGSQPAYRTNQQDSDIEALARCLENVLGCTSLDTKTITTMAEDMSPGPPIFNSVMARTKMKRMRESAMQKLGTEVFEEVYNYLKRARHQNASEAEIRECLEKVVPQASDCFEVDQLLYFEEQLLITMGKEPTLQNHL
Sequence of UniProt P22455 (whole entry, looked up): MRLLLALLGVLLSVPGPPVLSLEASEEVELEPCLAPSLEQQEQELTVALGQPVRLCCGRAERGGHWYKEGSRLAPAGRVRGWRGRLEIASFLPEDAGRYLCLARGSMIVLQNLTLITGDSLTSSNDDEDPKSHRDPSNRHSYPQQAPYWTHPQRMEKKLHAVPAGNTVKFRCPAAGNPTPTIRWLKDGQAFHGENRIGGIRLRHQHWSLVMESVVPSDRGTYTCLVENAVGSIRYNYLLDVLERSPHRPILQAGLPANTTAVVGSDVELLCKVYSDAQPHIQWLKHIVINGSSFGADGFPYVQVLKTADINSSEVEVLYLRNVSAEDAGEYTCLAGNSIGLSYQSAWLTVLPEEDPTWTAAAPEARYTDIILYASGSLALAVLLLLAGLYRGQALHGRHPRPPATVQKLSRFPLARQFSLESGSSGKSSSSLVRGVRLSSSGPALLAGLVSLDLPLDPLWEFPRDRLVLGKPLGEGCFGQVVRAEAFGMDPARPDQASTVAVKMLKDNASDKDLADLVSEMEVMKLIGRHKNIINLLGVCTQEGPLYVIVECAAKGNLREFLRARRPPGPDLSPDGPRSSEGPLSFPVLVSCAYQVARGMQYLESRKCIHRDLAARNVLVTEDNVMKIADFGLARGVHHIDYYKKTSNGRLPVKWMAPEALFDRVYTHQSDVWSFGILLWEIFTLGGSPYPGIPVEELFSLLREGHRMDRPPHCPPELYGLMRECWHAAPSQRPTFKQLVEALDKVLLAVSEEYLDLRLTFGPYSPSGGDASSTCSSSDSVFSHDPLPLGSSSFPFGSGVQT
Sequence of UniProt P06213 (whole entry, looked up): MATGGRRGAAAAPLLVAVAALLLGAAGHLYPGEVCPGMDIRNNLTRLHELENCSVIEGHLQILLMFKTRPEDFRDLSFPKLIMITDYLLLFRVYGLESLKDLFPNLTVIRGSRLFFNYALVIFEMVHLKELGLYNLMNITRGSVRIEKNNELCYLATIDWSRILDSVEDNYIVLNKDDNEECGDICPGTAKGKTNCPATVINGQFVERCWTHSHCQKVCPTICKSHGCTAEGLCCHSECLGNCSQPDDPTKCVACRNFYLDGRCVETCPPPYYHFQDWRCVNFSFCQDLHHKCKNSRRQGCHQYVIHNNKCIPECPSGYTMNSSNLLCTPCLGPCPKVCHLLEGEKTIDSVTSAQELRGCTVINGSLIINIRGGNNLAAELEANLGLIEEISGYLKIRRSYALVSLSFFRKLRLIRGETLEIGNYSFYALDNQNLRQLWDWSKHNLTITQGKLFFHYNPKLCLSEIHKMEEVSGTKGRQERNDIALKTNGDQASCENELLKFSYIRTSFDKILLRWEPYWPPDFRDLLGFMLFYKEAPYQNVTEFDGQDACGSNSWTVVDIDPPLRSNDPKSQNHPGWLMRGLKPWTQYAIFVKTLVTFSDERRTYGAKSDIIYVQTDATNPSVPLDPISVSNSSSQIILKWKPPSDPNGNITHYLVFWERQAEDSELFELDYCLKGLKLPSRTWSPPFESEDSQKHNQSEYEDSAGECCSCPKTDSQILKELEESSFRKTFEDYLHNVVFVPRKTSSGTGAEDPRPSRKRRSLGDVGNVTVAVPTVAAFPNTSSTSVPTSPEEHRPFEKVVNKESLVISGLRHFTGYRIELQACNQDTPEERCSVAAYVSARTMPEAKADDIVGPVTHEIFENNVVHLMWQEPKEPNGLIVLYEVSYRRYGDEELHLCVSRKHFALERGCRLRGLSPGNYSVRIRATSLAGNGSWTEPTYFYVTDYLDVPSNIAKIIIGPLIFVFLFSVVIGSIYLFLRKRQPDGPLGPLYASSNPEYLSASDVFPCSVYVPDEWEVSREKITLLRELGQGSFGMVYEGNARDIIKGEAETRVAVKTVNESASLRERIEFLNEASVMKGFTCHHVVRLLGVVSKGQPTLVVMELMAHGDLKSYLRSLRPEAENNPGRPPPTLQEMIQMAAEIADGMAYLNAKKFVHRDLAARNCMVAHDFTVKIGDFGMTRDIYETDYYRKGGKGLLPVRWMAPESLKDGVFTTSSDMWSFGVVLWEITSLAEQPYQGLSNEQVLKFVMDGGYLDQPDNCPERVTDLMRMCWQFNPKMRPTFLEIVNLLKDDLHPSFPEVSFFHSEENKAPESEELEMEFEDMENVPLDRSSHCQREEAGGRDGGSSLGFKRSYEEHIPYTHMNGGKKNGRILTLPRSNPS

Study 1 — cell line: Huh-7; concentration: 10 µM; time: 24 h
`O=C1c2c(O)cccc2Cc2cccc(O)c21` has a viability of 103%.
`C1CCC(C(CC2CCCCN2)C2CCCCC2)CC1` (stereo not drawn) has a viability of 79.9%.
For `CCN1CCN(c2cc3c(cc2F)c(=O)c(C(=O)O)cn3C2CC2)CC1`, the viability was 96.4%.
The viability of `CN1C(C(=O)Nc2ccccn2)=C(O)c2sccc2S1(=O)=O` is reported as 101%.
`COc1cc([C@@H]2c3cc4c(cc3[C@@H](O[C@@H]3O[C@@H]5CO[C@@H](c6cccs6)O[C@H]5[C@H](O)[C@H]3O)[C@H]3COC(=O)[C@H]23)OCO4)cc(OC)c1O` has a viability of 44.2%.
`CN(C)c1nc(N(C)C)nc(N(C)C)n1` gave a viability of 100%.
`C#C[C@]1(OC(C)=O)CC[C@H]2[C@@H]3CCC4=CC(=O)CC[C@@H]4[C@H]3CC[C@@]21C` gave a viability of 83.2%.
The viability of `C=C(CC)C(=O)c1ccc(OCC(=O)O)c(Cl)c1Cl` is reported as 95.8%.

Study 2 — species: human; sample: plasma; route: oral
Compound: COc1ccc(-c2c(Nc3ccccn3)[nH]c3c(C4=CCCCC4)c(-c4ccccc4)nn3c2=O)cc1
For LC-MS/MS; 400 mg once daily: Tlag read 0 h.
It gave 0 h for Tlag (200 mg twice daily).
LC-MS/MS; 200 mg once daily — Tlag: 0 h.

Study 3
Structure (SMILES): CNC(=O)c1ccc(-c2cnn3ccc(C(=O)N(C)c4ccc(Cl)c(C(=O)O)c4)cc23)cc1
Fibroblast growth factor receptor 4 (FGFR4, Homo sapiens, UniProt P22455); enzyme activity, inhibitor — IC50: greater than 30 µM.
For D(3) dopamine receptor (DRD3, Homo sapiens, UniProt P35462); cell-free assay: IC50 read greater than 30 µM.
For Insulin receptor (INSR, Homo sapiens, UniProt P06213); enzyme activity, inhibitor: IC50 read greater than 30 µM.
The IC50 was greater than 30 µM (Progesterone receptor (PGR, Homo sapiens, UniProt P06401); cell-free assay).
It gave greater than 30 µM for IC50 (D(1A) dopamine receptor (DRD1, Homo sapiens, UniProt P21728); cell-free assay).
Tyrosine-protein kinase Lck (LCK, Homo sapiens, UniProt P06239); enzyme activity, inhibitor — IC50: greater than 30 µM.
Tyrosine-protein kinase JAK3 (JAK3, Homo sapiens, UniProt P52333); enzyme activity, inhibitor — IC50: greater than 30 µM.
It gave greater than 30 µM for IC50 (MAP kinase-interacting serine/threonine-protein kinase 2 (MKNK2, Homo sapiens, UniProt Q9HBH9); enzyme activity, inhibitor).
For Serine/threonine-protein kinase Nek11 (NEK11, Homo sapiens, UniProt Q8NG66); enzyme activity, inhibitor: IC50 read greater than 30 µM.

Study 4 — method: phase 2a trial; species: idiopathic pulmonary fibrosis patients
Structure (SMILES): CC(C)n1cnc(-c2ccc(F)cc2)c1-c1ncc(C(=O)Nc2ccc(N3CCN(C)CC3)cc2)[nH]1
The “patients with proteinuria” was 0% (30 mg once daily, grade 4 emergent event).
For 30 mg once daily, grade 5 emergent event: “patients with proteinuria” read 0%.
The “patients with proteinuria” was 0% (60 mg once daily, grade 1 emergent event).
The “patients with proteinuria” was 0% (30 mg once daily, grade 3 emergent event).
The “patients with proteinuria” was 0% (60 mg once daily, grade 5 emergent event).

Study 5 — target: vanadate, free oxyanion; method: microfluidic competitive inhibition; sample: in vitro, cell-free expressed; concentration: not given; reading: lower = stronger binding
Setting: derived from inhibition constants, unchanged parent 676 nM
Parent: PafA, mature enzyme, eGFP fusion (Elizabethkingia meningoseptica, UniProt Q9KJX5); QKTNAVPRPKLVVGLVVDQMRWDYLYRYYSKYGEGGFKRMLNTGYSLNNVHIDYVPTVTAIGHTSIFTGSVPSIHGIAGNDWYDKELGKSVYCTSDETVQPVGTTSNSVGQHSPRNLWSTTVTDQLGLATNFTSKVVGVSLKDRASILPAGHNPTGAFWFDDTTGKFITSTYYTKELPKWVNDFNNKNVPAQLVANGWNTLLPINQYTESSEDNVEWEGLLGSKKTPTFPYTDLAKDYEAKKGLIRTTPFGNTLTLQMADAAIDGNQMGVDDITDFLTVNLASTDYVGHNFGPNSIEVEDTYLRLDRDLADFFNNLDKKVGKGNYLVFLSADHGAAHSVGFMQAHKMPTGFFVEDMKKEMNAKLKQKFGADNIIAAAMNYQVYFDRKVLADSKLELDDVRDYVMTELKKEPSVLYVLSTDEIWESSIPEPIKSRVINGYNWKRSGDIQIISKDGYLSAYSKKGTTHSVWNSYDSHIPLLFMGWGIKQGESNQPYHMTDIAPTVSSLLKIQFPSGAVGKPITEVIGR
For `H75V`, “oxyanion analog dissociation constant” read 658 nM.
`P348V`: “oxyanion analog dissociation constant” 597 nM.
`S433G`: “oxyanion analog dissociation constant” 657 nM.
`D355G`: “oxyanion analog dissociation constant” 549 nM.
`L177V`: “oxyanion analog dissociation constant” 578 nM.
`A235V` — result for “oxyanion analog dissociation constant”: 721 nM.
`F167G` — result for “oxyanion analog dissociation constant”: 1.25 µM.
`D260V` — result for “oxyanion analog dissociation constant”: 876 nM.
For `P230V`, “oxyanion analog dissociation constant” read 806 nM.
`L456V` — result for “oxyanion analog dissociation constant”: 1.09 µM.
For `D308G`, “oxyanion analog dissociation constant” read 571 nM.
`E489V`: “oxyanion analog dissociation constant” 752 nM.
For `Y29G`, “oxyanion analog dissociation constant” read 694 nM.
`L220V`: “oxyanion analog dissociation constant” 908 nM.
`G110A`: “oxyanion analog dissociation constant” 690 nM.
`Y286V` — result for “oxyanion analog dissociation constant”: 4.25 µM.
Under “oxyanion analog dissociation constant”, `F328V` is recorded as 1.58 µM.
`Q487G`: “oxyanion analog dissociation constant” 644 nM.
Under “oxyanion analog dissociation constant”, `S106G` is recorded as 1.03 µM.
`N214V` — result for “oxyanion analog dissociation constant”: 621 nM.
For `T253G`, “oxyanion analog dissociation constant” read 624 nM.
Under “oxyanion analog dissociation constant”, `I66V` is recorded as 630 nM.
`S504V`: “oxyanion analog dissociation constant” 608 nM.
`R8V` — result for “oxyanion analog dissociation constant”: 652 nM.
Under “oxyanion analog dissociation constant”, `T200V` is recorded as 713 nM.

Single results of other studies
With `CNC(=O)c1cc(C(=O)NC2CC2)cn(Cc2ccccc2)c1=O` the inhibition was 16.1% (Histamine H4 receptor (HRH4, Homo sapiens, UniProt Q9H3N8); binding, radioligand binding; 10 µM).

Repeated from above (study 5):
`F167G` — result for “oxyanion analog dissociation constant”: 1.25 µM.
`D260V` — result for “oxyanion analog dissociation constant”: 876 nM.
For `P230V`, “oxyanion analog dissociation constant” read 806 nM.
`L456V` — result for “oxyanion analog dissociation constant”: 1.09 µM.
For `D308G`, “oxyanion analog dissociation constant” read 571 nM.
